Values quoted from earlier work, collected from citations in different studies.
Lines come from different studies, so protocols differ. Numbers after ± are the reported error.
Organism: SARS-CoV-2

Structure (SMILES)	assay	system	conditions	measurement	value
O=C(/C=C/C=C/c1ccc(O)cc1)/C=C/c1ccc(O)cc1	antiviral activity			EC50	0.17 µM
Cc1ccc(CN)cc1C(=O)N[C@H](C)c1cccc2ccccc12				EC50	24 µM
Cc1ccc(N)cc1C(=O)N[C@H](C)c1cccc2ccccc12	viral replication			EC50	~20 µM
Cc1ccc(N2CCN(C)CC2)cc1C(=O)NC1(c2cc(-c3cnn(C)c3)nc3ccccc23)CC1				EC50	0.15 µM
O=C(Oc1cncc(Cl)c1)c1cccc2[nH]ccc12		Vero E6	concentration not given	antiviral activity	active
Cc1ccc(CNC(=O)c2ccc(F)c(F)c2)cc1C(=O)N[C@H](C)c1cccc2ccccc12				EC50	3.8 µM
C=C(CC)C(=O)c1ccc(OCC(=O)Nc2ccc3c(cnn3C)c2)c(Cl)c1Cl	viral replication			EC50	3.9 µM
N#Cc1ccccc1-c1cc(-c2cc(Cl)cc(OCC3CC3)c2)c(=O)n(-c2cccnc2)c1	viral replication			EC50	2 ± 0.7 µM
N#Cc1cccc(-n2[se]c3ccccc3c2=O)c1	viral replication, RT-qPCR	Vero		EC50	2 µM
Cc1ccc(N)cc1C(=O)N[C@H](C)c1cccc2ccccc12	viral replication	Vero E6		IC50	35.4 ± 15 µM
O=C(c1cccc(Cn2[se]c3ccccc3c2=O)c1)N1CCOCC1	viral replication, RT-qPCR	Vero		EC50	3.74 µM
Cc1ccc(N)cc1C(=O)N[C@H](C)c1cccc2ccccc12				EC50	38 µM
O=c1c2ccccc2[se]n1-c1cccc(C(F)(F)F)c1	viral replication, RT-qPCR	Vero		EC50	0.8 µM
CN1CCN(C(=O)N[C@@H](Cc2ccccc2)C(=O)N[C@H](/C=C/S(=O)(=O)c2ccccc2)CCc2ccccc2)CC1	cytopathic effect			EC50	0.62 µM

A few entries again:
Structure (SMILES)	assay	system	conditions	measurement	value
N#Cc1ccccc1-c1cc(-c2cc(Cl)cc(OCC3CC3)c2)c(=O)n(-c2cccnc2)c1	viral replication			EC50	2 ± 0.7 µM
N#Cc1cccc(-n2[se]c3ccccc3c2=O)c1	viral replication, RT-qPCR	Vero		EC50	2 µM
